# Results collected from several papers.
# Compare with care: the assays were run in different laboratories.
# SLC47A2: Multidrug and toxin extrusion protein 2 (SLC47A2, Homo sapiens, UniProt Q86VL8)
# Sequence of UniProt Q86VL8 (whole entry, looked up): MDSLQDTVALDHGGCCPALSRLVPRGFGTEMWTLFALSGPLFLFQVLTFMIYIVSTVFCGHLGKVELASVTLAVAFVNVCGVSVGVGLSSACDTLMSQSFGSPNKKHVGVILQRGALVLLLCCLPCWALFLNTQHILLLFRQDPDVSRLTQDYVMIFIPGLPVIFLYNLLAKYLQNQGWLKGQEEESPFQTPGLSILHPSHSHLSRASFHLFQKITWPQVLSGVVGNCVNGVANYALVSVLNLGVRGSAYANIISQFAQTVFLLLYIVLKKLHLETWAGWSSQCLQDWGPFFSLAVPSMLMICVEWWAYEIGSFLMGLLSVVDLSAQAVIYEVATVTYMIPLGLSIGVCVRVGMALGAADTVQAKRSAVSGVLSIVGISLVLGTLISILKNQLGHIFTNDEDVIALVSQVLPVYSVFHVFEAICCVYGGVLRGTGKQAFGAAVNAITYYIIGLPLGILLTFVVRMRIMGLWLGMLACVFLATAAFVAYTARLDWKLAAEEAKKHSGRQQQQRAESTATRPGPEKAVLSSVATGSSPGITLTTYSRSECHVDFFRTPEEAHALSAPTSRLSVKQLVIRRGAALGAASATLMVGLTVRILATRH
# Tumor necrosis factor receptor superfamily member 9/Nectin-4: Tumor necrosis factor receptor superfamily member 9/Nectin-4 (Homo sapiens, UniProt Q07011+Q96NY8)
# Sequence of UniProt Q96NY8 (whole entry, looked up): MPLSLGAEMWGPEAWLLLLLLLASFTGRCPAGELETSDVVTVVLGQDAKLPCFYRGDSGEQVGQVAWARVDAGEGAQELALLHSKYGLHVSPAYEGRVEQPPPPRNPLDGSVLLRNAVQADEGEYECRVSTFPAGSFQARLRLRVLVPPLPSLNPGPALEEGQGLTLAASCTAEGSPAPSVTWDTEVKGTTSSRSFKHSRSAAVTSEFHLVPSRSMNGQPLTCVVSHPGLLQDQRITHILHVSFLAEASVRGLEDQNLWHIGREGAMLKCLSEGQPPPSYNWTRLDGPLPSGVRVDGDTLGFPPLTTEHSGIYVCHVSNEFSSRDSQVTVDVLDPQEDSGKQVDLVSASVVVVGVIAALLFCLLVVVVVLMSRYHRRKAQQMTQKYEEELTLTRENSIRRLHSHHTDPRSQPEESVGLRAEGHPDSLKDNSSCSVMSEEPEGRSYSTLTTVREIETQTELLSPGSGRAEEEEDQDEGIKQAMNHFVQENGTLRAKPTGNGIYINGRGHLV
# Sequence of UniProt Q07011 (whole entry, looked up): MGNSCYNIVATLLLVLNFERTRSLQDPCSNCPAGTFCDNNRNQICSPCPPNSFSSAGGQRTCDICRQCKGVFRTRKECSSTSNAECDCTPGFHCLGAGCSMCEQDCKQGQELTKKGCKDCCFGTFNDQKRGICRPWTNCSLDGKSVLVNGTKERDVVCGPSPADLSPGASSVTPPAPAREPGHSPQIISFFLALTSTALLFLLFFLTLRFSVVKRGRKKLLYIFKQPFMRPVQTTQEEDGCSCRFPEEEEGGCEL
# Sequence of UniProt Q05421 (whole entry, looked up): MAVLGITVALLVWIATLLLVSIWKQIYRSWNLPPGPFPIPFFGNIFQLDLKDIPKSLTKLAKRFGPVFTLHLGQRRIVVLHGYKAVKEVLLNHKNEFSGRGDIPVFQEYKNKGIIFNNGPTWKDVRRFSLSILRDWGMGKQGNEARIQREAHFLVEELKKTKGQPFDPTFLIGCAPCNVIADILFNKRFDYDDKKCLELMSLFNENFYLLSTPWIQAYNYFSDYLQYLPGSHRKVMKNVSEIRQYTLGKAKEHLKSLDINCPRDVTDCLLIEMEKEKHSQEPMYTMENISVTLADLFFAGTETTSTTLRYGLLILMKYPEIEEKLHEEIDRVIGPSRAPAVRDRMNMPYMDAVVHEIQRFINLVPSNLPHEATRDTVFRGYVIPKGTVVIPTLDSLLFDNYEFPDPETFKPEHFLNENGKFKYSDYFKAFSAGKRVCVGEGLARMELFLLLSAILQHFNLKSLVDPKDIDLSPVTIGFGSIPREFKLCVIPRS
# Sequence of UniProt Q9UNQ0 (whole entry, looked up): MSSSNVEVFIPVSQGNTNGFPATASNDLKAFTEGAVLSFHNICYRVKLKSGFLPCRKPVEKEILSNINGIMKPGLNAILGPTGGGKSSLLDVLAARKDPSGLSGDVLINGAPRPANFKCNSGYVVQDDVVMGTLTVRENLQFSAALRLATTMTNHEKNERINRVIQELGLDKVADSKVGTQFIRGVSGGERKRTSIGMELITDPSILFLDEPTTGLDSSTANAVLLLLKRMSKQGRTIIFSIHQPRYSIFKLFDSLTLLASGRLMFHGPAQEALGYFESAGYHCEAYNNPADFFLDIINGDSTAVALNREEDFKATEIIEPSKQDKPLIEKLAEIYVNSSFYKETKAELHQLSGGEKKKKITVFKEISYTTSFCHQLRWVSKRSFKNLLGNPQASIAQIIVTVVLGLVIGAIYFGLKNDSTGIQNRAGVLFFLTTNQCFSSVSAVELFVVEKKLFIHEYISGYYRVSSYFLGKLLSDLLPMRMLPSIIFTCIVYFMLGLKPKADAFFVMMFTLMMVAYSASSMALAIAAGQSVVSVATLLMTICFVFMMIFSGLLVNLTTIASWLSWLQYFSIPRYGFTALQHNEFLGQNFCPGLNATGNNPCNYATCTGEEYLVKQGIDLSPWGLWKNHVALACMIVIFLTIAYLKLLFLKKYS
# Sequence of UniProt P03372 (whole entry, unmodified, looked up): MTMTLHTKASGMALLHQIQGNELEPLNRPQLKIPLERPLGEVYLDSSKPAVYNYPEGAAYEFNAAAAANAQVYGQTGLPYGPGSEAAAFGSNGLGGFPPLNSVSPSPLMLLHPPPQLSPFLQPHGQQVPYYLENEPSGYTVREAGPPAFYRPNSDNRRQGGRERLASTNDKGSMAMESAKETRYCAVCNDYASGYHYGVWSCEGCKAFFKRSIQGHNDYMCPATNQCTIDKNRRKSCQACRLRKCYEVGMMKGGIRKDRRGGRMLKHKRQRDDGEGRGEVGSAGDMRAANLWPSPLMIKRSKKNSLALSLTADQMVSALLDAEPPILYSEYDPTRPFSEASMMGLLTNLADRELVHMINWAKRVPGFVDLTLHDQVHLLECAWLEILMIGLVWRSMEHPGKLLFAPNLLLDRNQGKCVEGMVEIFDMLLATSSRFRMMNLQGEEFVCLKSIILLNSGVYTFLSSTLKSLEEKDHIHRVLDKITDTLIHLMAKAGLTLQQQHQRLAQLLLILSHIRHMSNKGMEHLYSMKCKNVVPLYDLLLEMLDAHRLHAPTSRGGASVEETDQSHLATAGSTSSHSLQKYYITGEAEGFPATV
# Sequence of UniProt Q16539 (whole entry, looked up): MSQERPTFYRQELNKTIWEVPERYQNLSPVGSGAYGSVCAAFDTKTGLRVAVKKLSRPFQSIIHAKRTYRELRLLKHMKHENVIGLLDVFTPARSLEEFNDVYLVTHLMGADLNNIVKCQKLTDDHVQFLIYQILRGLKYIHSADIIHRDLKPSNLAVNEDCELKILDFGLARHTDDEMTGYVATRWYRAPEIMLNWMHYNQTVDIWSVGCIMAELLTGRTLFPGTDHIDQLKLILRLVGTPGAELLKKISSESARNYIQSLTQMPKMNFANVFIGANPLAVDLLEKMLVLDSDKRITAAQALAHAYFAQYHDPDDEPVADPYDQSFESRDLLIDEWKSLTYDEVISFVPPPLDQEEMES
# Sequence of UniProt P05804 (whole entry, looked up): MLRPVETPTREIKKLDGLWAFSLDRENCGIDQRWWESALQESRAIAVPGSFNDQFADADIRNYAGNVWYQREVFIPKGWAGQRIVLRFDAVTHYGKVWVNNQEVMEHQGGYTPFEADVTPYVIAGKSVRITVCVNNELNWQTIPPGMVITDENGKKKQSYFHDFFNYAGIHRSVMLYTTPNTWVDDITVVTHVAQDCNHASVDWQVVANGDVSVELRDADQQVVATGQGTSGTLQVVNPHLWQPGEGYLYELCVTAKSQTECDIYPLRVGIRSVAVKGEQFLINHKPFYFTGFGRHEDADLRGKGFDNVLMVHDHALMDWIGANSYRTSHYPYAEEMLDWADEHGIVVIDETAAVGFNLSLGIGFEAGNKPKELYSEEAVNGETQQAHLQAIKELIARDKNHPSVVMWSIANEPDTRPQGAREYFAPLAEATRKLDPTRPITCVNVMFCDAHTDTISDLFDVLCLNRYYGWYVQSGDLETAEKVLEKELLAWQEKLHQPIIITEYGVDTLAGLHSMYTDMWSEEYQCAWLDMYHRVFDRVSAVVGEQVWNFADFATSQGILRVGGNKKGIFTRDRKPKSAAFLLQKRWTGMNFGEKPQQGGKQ
SMILES,tested on,test,test system,conditions,scale,quantity,value
Cn1cc(CN2CCCC(COc3ccccc3C(=O)N3CCCCC3)C2)c2ccccc21 (stereo not drawn),Vero-E6,CellTiter-Glo ATP,,"concentration not given, 72 h, retest 8-point duplicates","baseline: DMSO 0%, hyamine -100%, more negative, more toxic",cytotoxicity efficacy,0%
CCN(CC)CCCC(C)Nc1ccnc2cc(Cl)ccc12 (stereo not drawn),SLC47A2,"transport, inhibitor",transiently transfected cells,"100 µM, 10 (unit not given), added: thiamine",,inhibition,126%
CCn1c2ccccc2c2cc(CN3CCN(Cc4cccc(Cl)c4)CC3)ccc21,Vero-E6,CellTiter-Glo ATP,,"72 h, second round 5-point","baseline: DMSO 0%, hyamine -100%, more negative, more toxic",maximum response,0.058%
O=c1ccc2ncc(=O)n3c2n1C[C@H]3CN1CCC(NCc2cc3c(cn2)OCCC3)CC1,SLC47A2,,SLC47A2-overexpressing cells,,baseline: control cells,uptake ratio,11.5 fold
CCCC[C@@H]1NC(=O)[C@H](Cc2ccc(O)cc2)NC(=O)[C@@H]2CCCN2C(=O)[C@H](CC(=O)O)NC(=O)[C@H](C)NC(=O)[C@H](Cc2ccccc2)NC(=O)[C@@H]2CSCCC(=O)N3CN(CN(C3)C(=O)CCSCCC(=O)N[C@@H](CC(C)(C)C)C(=O)N3CCC[C@H]3C(=O)N[C@@H](CCC(=O)O)C(=O)N[C@H](CCCCNC(=O)CCc3cn(CCOCCOCCOCCN(CCOCCOCCOCCC(=O)N[C@H]4CSCCC(=O)N5CN6CN(C5)C(=O)CCSC[C@H](NC(=O)[C@@H](CC(=O)O)NC(=O)[C@H](Cc5cccc7ccccc57)NC(=O)[C@@H]5CCCN5C4=O)C(=O)N[C@@H](CCSC)C(=O)N[C@@H](CCCCNC(=N)N)C(=O)N[C@@H](CC(=O)O)C(=O)N[C@@H](Cc4c[nH]c5ccccc45)C(=O)N[C@@H](CO)C(=O)N[C@@H]([C@@H](C)O)C(=O)N4CCC[C@H]4C(=O)N4C[C@H](O)C[C@H]4C(=O)N[C@@H](Cc4c[nH]c5ccccc45)C(=O)N[C@H](C(N)=O)CSCCC6=O)CCOCCOCCOCCn4cc(CCC(=O)NCCCC[C@H]5NC(=O)[C@H](CCC(=O)O)NC(=O)[C@@H]6CCCN6C(=O)[C@H](CC(C)(C)C)NC(=O)CCSCCC(=O)N6CN7CN(C6)C(=O)CCSC[C@H](NC(=O)[C@H](Cc6ccc(O)cc6)NC(=O)[C@@H]6CCCN6C5=O)C(=O)N[C@@H](Cc5ccccc5)C(=O)N[C@@H](C)C(=O)N[C@@H](CC(=O)O)C(=O)N5CCC[C@H]5C(=O)N[C@@H](Cc5ccc(O)cc5)C(=O)N[C@@H](CCCC)C(=O)NCCSCCC7=O)nn4)nn3)C(=O)N3CCC[C@H]3C(=O)N[C@@H](Cc3ccc(O)cc3)C(=O)N2)C(=O)CCSCCNC1=O,Tumor necrosis factor receptor superfamily member 9/Nectin-4,"reporter gene, agonist, luciferase reporter",CD137 Jurkat reporter with HT-1376,"6 h, geometric mean",baseline: wells without compound,Emax,71 fold
C[C@H]1CN(c2n[nH]c3nc(N[C@H]4CC[C@H](NS(=O)(=O)CCC(F)(F)F)CC4)ncc23)CCO1,"Mitogen-activated protein kinase 14 (MAPK14, Homo sapiens, UniProt Q16539)","competitor, Kinobeads competition","HEK293, K562, placenta extract",,,IC50,1.2 µM
CC1(C)[C@H](C=C(Cl)Cl)[C@H]1C(=O)OCc1cccc(Oc2ccccc2)c1,human CYP2B6,IVIVE from expressed enzymes,"human, liver, in vivo scaled","0.1 µM, age-specific",,enzyme contribution to CLint,0.05%
COC(=O)c1cc(O)c(O)c(O)c1,"Beta-glucuronidase (uidA, Escherichia coli, UniProt P05804)",,,"concentration not given, 6 h, pH 7.4, glucuronide hydrolysis",baseline: untreated control,aglycone concentration increase,≥ 1.25 fold
CCCC[C@@H]1NC(=O)[C@H](Cc2ccc(O)cc2)NC(=O)[C@@H]2CCCN2C(=O)[C@H](CC(=O)O)NC(=O)[C@H](C)NC(=O)[C@H](Cc2ccccc2)NC(=O)[C@@H]2CSCCC(=O)N3CN(CN(C3)C(=O)CCSC[C@@H](C(N)=O)NC1=O)C(=O)CCSCCC(=O)N[C@@H](CC(C)(C)C)C(=O)N1CCC[C@H]1C(=O)N[C@@H](CCC(=O)O)C(=O)N[C@H](CCCCNC(=O)CCc1cn(CCOCCOCCOCCOCCOCCC(=O)N[C@H]3CSCCC(=O)N4CN5CN(C4)C(=O)CCSC[C@H](NC(=O)[C@@H](CC(=O)O)NC(=O)[C@H](Cc4cccc6ccccc46)NC(=O)[C@@H]4CCCN4C3=O)C(=O)N[C@@H](CCSC)C(=O)N[C@@H](CCCCNC(=N)N)C(=O)N[C@@H](CC(=O)O)C(=O)N[C@@H](Cc3c[nH]c4ccccc34)C(=O)N[C@@H](CO)C(=O)N[C@@H]([C@@H](C)O)C(=O)N3CCC[C@H]3C(=O)N3C[C@H](O)C[C@H]3C(=O)N[C@@H](Cc3c[nH]c4ccccc34)C(=O)N[C@H](C(N)=O)CSCCC5=O)nn1)C(=O)N1CCC[C@H]1C(=O)N[C@@H](Cc1ccc(O)cc1)C(=O)N2,Tumor necrosis factor receptor superfamily member 9/Nectin-4,"reporter gene, agonist, luciferase reporter",CD137 Jurkat reporter with HT-1376,"6 h, geometric mean",baseline: wells without compound,Emax,39 fold
C=CC1CO1 (stereo not drawn),"Cytochrome P450 2E1 (Cyp2e1, Mus musculus, UniProt Q05421)","4-nitrophenol oxidation, inhibitor","B6C3F1 mouse, liver microsomes",binding to substrate-bound enzyme,,Ki,59 µM
CCC(C)(c1ccc(O)cc1)c1ccc(O)cc1,"Estrogen receptor (ESR1, Homo sapiens, UniProt P03372)",ITC,,25 °C,,ΔH,-16.9 kcal/mol
CCOC(=O)c1c(CSc2ccccc2)n(C)c2cc(Br)c(O)c(CN(C)C)c12,"Broad substrate specificity ATP-binding cassette transporter ABCG2 (ABCG2, Homo sapiens, UniProt Q9UNQ0)","transport, inhibitor",,"100 µM, 5 (unit not given), pH 7, added: CCK-8",,inhibition,35%

# For quick reference, copied from above:
SMILES,tested on,test,test system,conditions,scale,quantity,value
CCCC[C@@H]1NC(=O)[C@H](Cc2ccc(O)cc2)NC(=O)[C@@H]2CCCN2C(=O)[C@H](CC(=O)O)NC(=O)[C@H](C)NC(=O)[C@H](Cc2ccccc2)NC(=O)[C@@H]2CSCCC(=O)N3CN(CN(C3)C(=O)CCSCCC(=O)N[C@@H](CC(C)(C)C)C(=O)N3CCC[C@H]3C(=O)N[C@@H](CCC(=O)O)C(=O)N[C@H](CCCCNC(=O)CCc3cn(CCOCCOCCOCCN(CCOCCOCCOCCC(=O)N[C@H]4CSCCC(=O)N5CN6CN(C5)C(=O)CCSC[C@H](NC(=O)[C@@H](CC(=O)O)NC(=O)[C@H](Cc5cccc7ccccc57)NC(=O)[C@@H]5CCCN5C4=O)C(=O)N[C@@H](CCSC)C(=O)N[C@@H](CCCCNC(=N)N)C(=O)N[C@@H](CC(=O)O)C(=O)N[C@@H](Cc4c[nH]c5ccccc45)C(=O)N[C@@H](CO)C(=O)N[C@@H]([C@@H](C)O)C(=O)N4CCC[C@H]4C(=O)N4C[C@H](O)C[C@H]4C(=O)N[C@@H](Cc4c[nH]c5ccccc45)C(=O)N[C@H](C(N)=O)CSCCC6=O)CCOCCOCCOCCn4cc(CCC(=O)NCCCC[C@H]5NC(=O)[C@H](CCC(=O)O)NC(=O)[C@@H]6CCCN6C(=O)[C@H](CC(C)(C)C)NC(=O)CCSCCC(=O)N6CN7CN(C6)C(=O)CCSC[C@H](NC(=O)[C@H](Cc6ccc(O)cc6)NC(=O)[C@@H]6CCCN6C5=O)C(=O)N[C@@H](Cc5ccccc5)C(=O)N[C@@H](C)C(=O)N[C@@H](CC(=O)O)C(=O)N5CCC[C@H]5C(=O)N[C@@H](Cc5ccc(O)cc5)C(=O)N[C@@H](CCCC)C(=O)NCCSCCC7=O)nn4)nn3)C(=O)N3CCC[C@H]3C(=O)N[C@@H](Cc3ccc(O)cc3)C(=O)N2)C(=O)CCSCCNC1=O,Tumor necrosis factor receptor superfamily member 9/Nectin-4,"reporter gene, agonist, luciferase reporter",CD137 Jurkat reporter with HT-1376,"6 h, geometric mean",baseline: wells without compound,Emax,71 fold
